Experimental data gathered from unrelated publications.
Each numbered part is a random draw from the data of one study; scales do not carry over between parts.

Study 1 — method: universal PBM; form: double-stranded DNA, one strand shown; medium: in vitro; tested at: 600 nM; direction: higher = stronger binding; endpoint: E-score
Target: Sal-like protein 4, full length isoform A (SALL4, Homo sapiens, UniProt Q9UJQ4, residues 1-1053)
Sequence of UniProt Q9UJQ4 (whole entry, looked up): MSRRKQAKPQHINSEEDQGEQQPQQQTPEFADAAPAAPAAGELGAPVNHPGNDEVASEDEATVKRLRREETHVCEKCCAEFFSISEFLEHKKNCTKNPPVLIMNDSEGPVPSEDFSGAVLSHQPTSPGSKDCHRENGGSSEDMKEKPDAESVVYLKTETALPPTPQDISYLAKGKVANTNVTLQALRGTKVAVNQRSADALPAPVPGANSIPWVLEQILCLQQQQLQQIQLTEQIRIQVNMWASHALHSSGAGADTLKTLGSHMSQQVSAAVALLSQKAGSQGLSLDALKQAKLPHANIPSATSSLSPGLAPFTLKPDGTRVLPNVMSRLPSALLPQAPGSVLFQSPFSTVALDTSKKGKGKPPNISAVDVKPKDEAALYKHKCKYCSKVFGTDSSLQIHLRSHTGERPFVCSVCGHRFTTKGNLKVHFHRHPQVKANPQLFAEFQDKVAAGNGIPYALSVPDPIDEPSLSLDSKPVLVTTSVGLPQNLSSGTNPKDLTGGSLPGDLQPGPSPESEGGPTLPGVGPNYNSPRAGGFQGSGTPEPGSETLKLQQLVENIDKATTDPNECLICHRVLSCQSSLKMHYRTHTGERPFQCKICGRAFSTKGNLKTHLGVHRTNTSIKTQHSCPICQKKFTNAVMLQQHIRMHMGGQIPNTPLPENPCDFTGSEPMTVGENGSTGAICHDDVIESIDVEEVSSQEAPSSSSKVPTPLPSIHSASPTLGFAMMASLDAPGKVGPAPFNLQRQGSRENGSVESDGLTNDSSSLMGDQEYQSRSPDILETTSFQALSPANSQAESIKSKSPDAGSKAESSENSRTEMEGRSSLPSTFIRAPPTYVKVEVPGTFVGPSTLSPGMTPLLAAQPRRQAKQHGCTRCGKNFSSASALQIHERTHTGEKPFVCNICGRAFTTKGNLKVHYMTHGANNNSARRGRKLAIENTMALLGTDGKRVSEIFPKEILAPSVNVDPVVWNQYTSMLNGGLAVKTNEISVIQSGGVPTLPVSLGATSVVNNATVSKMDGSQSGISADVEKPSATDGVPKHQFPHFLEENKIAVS
Setting: 8-mer, flanks averaged, mean of replicates
Oligonucleotide = GGCGCACC; value = -0.383
Oligonucleotide = AGCGTAAC; value = 0.115
Oligonucleotide = ATGCGAAA; value = 0.169
Oligonucleotide = GCTCTGTA; value = 0.0183
Oligonucleotide = ACGGGCTA; value = -0.134
Oligonucleotide = ACACTTAG; value = 0.141
Oligonucleotide = CTCGAATC; value = -0.0889
Oligonucleotide = TCCCAGGA; value = -0.266
Oligonucleotide = ACTGAGCA; value = -0.0362
Oligonucleotide = ATAGTACG; value = 0.132
Oligonucleotide = AGCGGCGA; value = -0.176
Oligonucleotide = AGGAGTCC; value = -0.26
Oligonucleotide = AGTTCGAG; value = -0.0344
Oligonucleotide = ACCGGCTG; value = -0.429
Oligonucleotide = CGTAACAC; value = 0.1
Oligonucleotide = CTGTGGTC; value = -0.184
Oligonucleotide = CAGCATTC; value = -0.0828
Oligonucleotide = GGACAGAA; value = -0.0011
Oligonucleotide = AGGATTGA; value = 0.204
Oligonucleotide = AAGTGGGA; value = 0.196
Oligonucleotide = GAATCAAA; value = 0.0464
Oligonucleotide = GGGGACAA; value = -0.183
Oligonucleotide = TCCATGGA; value = -0.0146
Oligonucleotide = GGTCCAGA; value = -0.198
Oligonucleotide = ACAGATAG; value = 0.0772

Study 2 — method: RNA Bind-n-Seq; form: RNA; medium: in vitro; tested at: 365 nM; baseline: no-protein control; direction: higher = stronger binding; endpoint: RBNS enrichment (R)
Target: RNA binding protein fox-1 homolog 2, RRM domain, GST-SBP tag (RBFOX2, Homo sapiens, UniProt O43251-10, residues 100-194)
Setting: natural RNA segment, single round, ends assumed
All sequences stand within: GGGAGUUCUACAGUCCGACGAUC … UGGAAUUCUCGGGUGCCAA
Construct (chain): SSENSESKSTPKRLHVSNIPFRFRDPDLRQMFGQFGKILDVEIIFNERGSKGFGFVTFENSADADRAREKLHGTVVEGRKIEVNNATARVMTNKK
Oligonucleotide = CAAGCUUAACUUCAUGUAAAGUCUUCACUGCCAGUGGGAACAUCUUUGACACAACAAGACACUCCAAUUGUGAUUUGAGUUGAGGAUCUCUGCCUGCCUUCCUGCCGUCC; value = 0.258
Oligonucleotide = GCAUUCAUUUCUAUACAUCACACAUCUCCAGGAGAAUGCACAUUAUAGGUAUGUAAUGUGGAACCGACACUGGGGAGAUCUGAAGGAAGAAGGCAUGAGGCACUCUCUGA; value = 1.62
Oligonucleotide = UUUACAUCAGGAUGCUCACGUGAUUUGUGAAUAUUUUCAUUCCAUCAACAAGGGAGUUUAAUUAUGUGUGAGACUGACACAAACCUUAAUGUAAUUUAGUUAGAAUGCCA; value = 0.364
Oligonucleotide = CAUCAGGCUGGGGGCUGUGCUAUGUGGGAUGGAUGUGUGAGGAACCCCGGUUCCACUUAACAACUAAAUACAACAUCUUUUGCACCCCUAGAAUGUCAUUUUGCCCUCAA; value = 0.525
Oligonucleotide = CAUUGGUAGUUAUUUUGCACCAGCAGUGCCUUUCUCACUGGGGGUACUUGGACCCUCAGAUCUUCUUUUCUAAUAGCCAUUUGCCACCCCAAGUGGUAUGUCGGCCAUUU; value = 0.449
Oligonucleotide = CUGCUUGUCACUCGGCAGCUUAGGGCCUCUGCGCAGGAACCUGACUAGGACUAUGACCUCCACGGCGGCUGUUUAGGUCUCGACUUACAUCAGAAUCUUGCACAGCAUUG; value = 0.264
Oligonucleotide = CUGUGAGAGCGGGAUGGGGACGACAUGAAUCACAGCUUUGCUGUGAGCUUUCUCUCGUGCAGUUUCAUCAGAGGUUUGGGAGGAGGGCAAGUGGCCGCUAGAGAAGAAUA; value = 0.546
Oligonucleotide = GAUUGAUGCGCACCAGUCUUGAGGAAACGAUCUCCCUAUUCCCUUACCCUGUUACUCAGCCACGCCGUGUGUAGGCUUAGCCUCAGGUGGCAGAUGUUUGAGGAAAGGAA; value = 0.427

Study 3 — method: protein binding microarray; form: double-stranded DNA, one strand shown; medium: in vitro; tested at: not given; baseline: not given; direction: higher = stronger binding; endpoint: E-score
Target: Histone acetyltransferase KAT6A, winged helix 1, GST fusion (KAT6A, Homo sapiens, UniProt Q92794, residues 1-85)
Setting: 8-mer, flanks averaged, mean of 2 arrays, mostly near background
Construct (chain): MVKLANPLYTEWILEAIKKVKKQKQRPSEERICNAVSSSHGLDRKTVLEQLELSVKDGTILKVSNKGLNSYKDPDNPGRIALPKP
Oligonucleotide = CCCAGGTA; value = -0.229
Oligonucleotide = CTGGCTTA; value = -0.23
Oligonucleotide = AATGCCCT; value = -0.171
Oligonucleotide = ATTATTAG; value = -0.0106
Oligonucleotide = CTCAGAGC; value = -0.0138
Oligonucleotide = GACACTGC; value = -0.119
Oligonucleotide = AGGCCATC; value = -0.108
Oligonucleotide = CTGAGGGC; value = 0.0123
Oligonucleotide = AAAGCAAC; value = -0.00918
Oligonucleotide = AGCGACAT; value = -0.00487
Oligonucleotide = CGCCCTTA; value = 0.0516
Oligonucleotide = GCATCACA; value = 0.00276
Oligonucleotide = ACAACCCC; value = 0.034
Oligonucleotide = CTAGTTTC; value = 0.0206
Oligonucleotide = CATACTGG; value = -0.0366
Oligonucleotide = CGTGCTAA; value = -0.107
Oligonucleotide = AATGCTAG; value = -0.0761
Oligonucleotide = AATTCGTG; value = -0.227
Oligonucleotide = AATTGCCC; value = -0.0229
Oligonucleotide = CGGGTGGA; value = 0.239
Oligonucleotide = AGGAGCGC; value = 0.275
Oligonucleotide = CTTCTGGA; value = -0.192
Oligonucleotide = CGCTCGGC; value = 0.32
Oligonucleotide = AACTTACT; value = -0.171
Oligonucleotide = AAAACTAC; value = 0.0947

Study 4 — method: RNA Bind-n-Seq; form: RNA; medium: in vitro; tested at: not given; baseline: input RNA pool; direction: higher = stronger binding; endpoint: bound/input enrichment
Target: RING finger protein unkempt homolog, zinc fingers 1-6, GST-SBP tag (UNK, Homo sapiens, UniProt Q9C0B0, residues 30-357)
Sequence of UniProt Q9C0B0 (30-357, looked up): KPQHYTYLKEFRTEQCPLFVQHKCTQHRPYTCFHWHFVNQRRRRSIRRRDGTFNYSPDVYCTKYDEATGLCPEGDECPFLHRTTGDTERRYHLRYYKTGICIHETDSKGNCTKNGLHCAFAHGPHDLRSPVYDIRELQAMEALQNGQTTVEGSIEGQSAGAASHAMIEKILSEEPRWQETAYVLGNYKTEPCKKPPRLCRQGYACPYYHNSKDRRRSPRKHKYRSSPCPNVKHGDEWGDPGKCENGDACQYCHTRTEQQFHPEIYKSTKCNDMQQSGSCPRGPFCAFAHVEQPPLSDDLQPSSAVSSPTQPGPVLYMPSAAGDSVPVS
Setting: RNA with constant flanks, human and mouse sites, ends assumed
All sequences stand within: GGGAGUUCUACAGUCCGACGAUC … CAACAGAGGAUUGAGCAUCA
Oligonucleotide = UUGGAAACCAGUGCUAAGAACGCAACGAAUGUAGAACAGUCUUUCAUGACGAUGGCAGCUGAGAUUAAAAAGCGAAUGGGUCCUGGAGCUACAGCUGGUGGUGCCGAGAAGUCCAAUGUU; value = 0.178 ratio
Oligonucleotide = UACUUCCAGUGUUCCUCAUCAUGUUUCCAGCAAGUCCCUUUUUCUACGUUGCAGUUUGUUUAAUGUAUGUUAAUUUCACCUGGCUUCAUUCAUUUUCCUUUUUAAAAUUUGUCUUUUAAA; value = 0.304 ratio
Oligonucleotide = UUUUUCUUGUGUAUACAAGUAUAUAUUUUUGUUUGACGCGGACUAAAUCAUUUUCAUUUAAUUUCCGGUAAACAAAACCCACGCGAAUGGGCACUUGUACCCGAUCAUAAUAAAAAUGGA; value = 0.283 ratio
Oligonucleotide = UCUGACAGGAAUAUAGUACUGUACGAUAUGAGGCAAGCUACUCCUUUGAAAAAGGUUAUCUUAGAUAUGAGAACAAAUACAAUCUGUUGGAACCCUAUGGAAGCUUUCAUUUUUACAGCA; value = 0.56 ratio
Oligonucleotide = GAAUUACAGACCUCUAUUUUUUGAAGACCGAGCAGGGAUUAGCUGUGUCAGGAACUUGGAGUUGCACUUAACCUUGUAACUUUGUUUGGAGCUGGCACCUCUUGAAAUAAAAAGGAGGAU; value = 0.371 ratio
Oligonucleotide = AGCAGUGAGGAUGCCUCAACCCCUCAGUGUGUCCACACAAGAUUGACAGGAGAGGGUUCUUGCCCUCAUUCUGGAGAUGUUCAUAUCCAGAUAAACUCCAUACCUAAAGAAUGUGCAGAA; value = 0.126 ratio
Oligonucleotide = AGAGUGAAAAUUCUUCGAGAUUAUGCUGGCCUUAUACUUUUCCUAGAAGAGGAUCACUACUUAGCCCCAGACUUUUACCAUGUCUUCAAAAAGAUGUGGAAACUGAAGCAGCAAGAGUGC; value = 0.301 ratio
Oligonucleotide = CUUAUUGUGGAUGGCCGAGGCAAAGCAACAAUAUCUAAUGAUGGGGCCACAAUUCUGAAACUCCUCGAUGUUGUCCAUCCUGCAGCAAAGACUUUAGUGGACAUAGCCAAGUCCCAGGAU; value = 0.16 ratio

Excerpt of the above (study 1):
Oligonucleotide = GGGGACAA; value = -0.183
Oligonucleotide = GGCGCACC; value = -0.383
Oligonucleotide = TCCATGGA; value = -0.0146
Oligonucleotide = CAGCATTC; value = -0.0828
Oligonucleotide = AAGTGGGA; value = 0.196
Oligonucleotide = TCCCAGGA; value = -0.266
Oligonucleotide = ACACTTAG; value = 0.141
Oligonucleotide = ATGCGAAA; value = 0.169
